{"data": "Measurements collected from several papers", "organism": "Pseudomonas aeruginosa", "note": "Lines come from different studies, so protocols differ."}
{"Compound": "CC1(C)SC2C(NC(=O)C(NC(=O)C3=C(O)C(Cc4ccc([N+](=O)[O-])cc4)NC3=O)c3ccccc3)C(=O)N2C1C(=O)O (stereo not drawn)", "test system": "pvdS mutant", "MIC": "25 µg/mL"}
{"Compound": "CC[C@H](C)[C@H](NC(=O)[C@H](CC(C)C)NC(=O)[C@H](CCCCN)NC(=O)[C@H](CC(C)C)NC(=O)CNC(=O)[C@@H](NC(=O)[C@H](CO)NC(=O)[C@@H](NC(=O)[C@@H](NC(=O)[C@H](CCC(N)=O)NC(=O)[C@H](Cc1c[nH]c2ccccc12)NC(=O)[C@H](CCCNC(=N)N)NC(=O)[C@H](CC(N)=O)NC(=O)[C@H](CCCNC(=N)N)NC(=O)[C@H](CCCNC(=N)N)NC(=O)[C@@H](NC(=O)[C@H](Cc1ccccc1)NC(=O)[C@H](CCCNC(=N)N)NC(=O)CNC(=O)[C@H](C)NC(=O)[C@H](CCCNC(=N)N)NC(=O)[C@H](CCCNC(=N)N)NC(=O)[C@H](CCCCN)NC(=O)[C@H](Cc1ccccc1)NC(=O)[C@H](CCCNC(=N)N)NC(=O)CNC(=O)[C@H](Cc1c[nH]c2ccccc12)NC(=O)[C@H](CCCNC(=N)N)NC(=O)CNC(=O)[C@H](CCCNC(=N)N)NC(=O)[C@@H](N)[C@@H](C)O)[C@@H](C)CC)[C@@H](C)CC)[C@@H](C)CC)[C@@H](C)O)C(=O)NCC(=O)O", "test system": "CMCC 10104", "setting": "highest concentration 50 µM", "MIC": "4.79 µM"}
{"Compound": "CC[C@H](C)[C@H](NC(=O)[C@H](CC(C)C)NC(=O)[C@H](CCCCN)NC(=O)[C@@H](NC(=O)[C@H](C)NC(=O)[C@H](CCC(=O)O)NC(=O)[C@H](Cc1c[nH]cn1)NC(=O)[C@@H](NC(=O)[C@H](CCCCN)NC(=O)[C@H](CCC(N)=O)NC(=O)[C@H](Cc1ccccc1)NC(=O)[C@@H](NC(=O)[C@H](CCCCN)NC(=O)[C@H](CCCCN)NC(=O)[C@H](CC(C)C)NC(=O)[C@H](C)N)C(C)C)[C@@H](C)CC)[C@@H](C)CC)C(N)=O", "test": "broth microdilution", "test system": "4007 resistant", "setting": "18 h, 37 °C", "MIC": "8 µM"}
{"Compound": "NCCCC1CN(c2ccc3c(n2)NC(=O)CO3)C(=O)O1 (stereo not drawn)", "test system": "ATCC 27853", "MIC": "80 µg/mL"}
{"Compound": "CCCCCCCC(=O)N[C@@H](CCN)C(=O)N[C@H](C(=O)N[C@@H](CCN)C(=O)N[C@H]1CCNC(=O)[C@H]([C@@H](C)O)NC(=O)[C@H](CCN)NC(=O)[C@H](CCN)NC(=O)[C@H](Cc2ccccc2)NC(=O)[C@@H](CCc2ccccc2)NC(=O)[C@H](CCN)NC1=O)[C@@H](C)O", "test": "broth microdilution", "test system": "colistin-resistant isolates", "MIC": "0.25 to 0.5 µg/mL"}
{"Compound": "CC[C@H](C)CCCCC(=O)N[C@@H](CCN)C(=O)N[C@H](C(=O)N[C@@H](CCN)C(=O)N[C@H]1CCNC(=O)[C@H]([C@@H](C)O)NC(=O)[C@H](CCN)NC(=O)[C@H](CCN)NC(=O)[C@H](CC(C)C)NC(=O)[C@@H](Cc2ccccc2)NC(=O)[C@H](CCN)NC1=O)[C@@H](C)O", "test": "broth microdilution", "test system": "ATCC 27853", "setting": "24 h, 37 °C", "MIC": "2 µg/mL"}
{"Compound": "CC[C@H](C)[C@H](NC(=O)[C@H](Cc1c[nH]c2ccccc12)NC(=O)[C@@H](NC(=O)[C@H](Cc1ccc(O)cc1)NC(=O)[C@@H]1CCCN1C(=O)[C@@H](NC(=O)[C@H](C)N)[C@@H](C)CC)[C@@H](C)CC)C(=O)N[C@@H](Cc1ccc(O)cc1)C(=O)N[C@@H](CCCNC(=N)N)C(=O)N[C@@H](CC(C)C)C(=O)N[C@@H](CC(C)C)C(=O)N[C@@H](CCCNC(=N)N)C(=O)N[C@@H](CCCCN)C(=O)NCC(N)=O", "test": "broth microdilution", "test system": "PAO1", "setting": "18 h, 37 °C", "MIC": "15 µM"}
{"Compound": "CC[C@H](C)[C@H](NC(=O)CNC(=O)[C@H](CC(=O)O)NC(=O)[C@H](CCCNC(=N)N)NC(=O)[C@@H](NC(=O)[C@H](CC(N)=O)NC(=O)[C@H](CCCNC(=N)N)NC(=O)CNC(=O)[C@@H](NC(=O)[C@H](CCCCN)NC(=O)[C@H](CCC(=O)O)NC(=O)[C@@H](NC(=O)[C@H](CCCCN)NC(=O)[C@H](CCCCN)NC(=O)[C@H](Cc1ccccc1)NC(=O)[C@@H](NC(=O)[C@H](CCCCN)NC(=O)[C@H](Cc1c[nH]c2ccccc12)NC(=O)[C@@H](N)CCCNC(=N)N)[C@@H](C)CC)[C@@H](C)CC)C(C)C)C(C)C)C(=O)N[C@H](C(=O)N[C@@H](CCCCN)C(=O)N[C@@H](C)C(=O)NCC(=O)N1CCC[C@H]1C(=O)N[C@@H](C)C(=O)N[C@H](C(=O)N[C@@H](C)C(=O)N[C@@H](C)C(=O)N[C@@H](C)C(=O)NCC(=O)N[C@@H](CCC(N)=O)C(=O)N[C@@H](C)C(=O)N[C@@H](C)C(=O)N[C@H](C(=O)N[C@H](C(=O)N[C@H](C(=O)N[C@@H](CCCCN)C(N)=O)C(C)C)C(C)C)[C@@H](C)O)C(C)C)[C@@H](C)CC", "test system": "KCCM 11328, Mueller-Hinton broth", "setting": "16 h, 37 °C", "how to read": "growth inhibition over 99%", "MIC": "4 µM"}
{"Compound": "CC1(C)S[C@@H]2[C@H](NC(=O)[C@H](N)c3ccccc3)C(=O)N2[C@H]1C(=O)O", "test system": "fpvA mutant", "MIC": "> 200 µg/mL"}
{"Compound": "O=C(O)c1cccc(C(=O)O)n1", "test system": "IMP-7 producer", "setting": "32 µg/mL, MIC of meropenem, added: meropenem", "MIC": "16 µg/mL"}
{"Compound": "CC1(C)SC2C(NC(=O)C(NC(=O)C3=C(O)C(Cc4ccccc4)NC3=O)c3ccccc3)C(=O)N2C1C(=O)O (stereo not drawn)", "test": "broth microdilution", "test system": "TonB-dependent receptor mutant", "setting": "PA two-allele library", "MIC": "12.5 µg/mL"}
{"Compound": "CC[C@H](C)[C@H](NC(=O)CNC(=O)[C@H](CC(=O)O)NC(=O)[C@H](CCCNC(=N)N)NC(=O)[C@@H](NC(=O)[C@H](CC(N)=O)NC(=O)[C@H](CCCNC(=N)N)NC(=O)CNC(=O)[C@@H](NC(=O)[C@H](CCCCN)NC(=O)[C@H](CCC(=O)O)NC(=O)[C@@H](NC(=O)[C@H](CCC(=O)O)NC(=O)[C@H](CCCCN)NC(=O)[C@H](Cc1ccccc1)NC(=O)[C@@H](NC(=O)[C@H](CCCCN)NC(=O)[C@H](Cc1c[nH]c2ccccc12)NC(=O)[C@@H](N)CCCNC(=N)N)[C@@H](C)CC)[C@@H](C)CC)C(C)C)C(C)C)C(=O)N[C@H](C(=O)N[C@@H](CCCCN)C(=O)N[C@@H](C)C(=O)NCC(=O)N1CCC[C@H]1C(=O)N[C@@H](C)C(=O)N[C@H](C(=O)N[C@@H](C)C(=O)N[C@H](C(=O)N[C@H](C(=O)NCC(=O)N[C@@H](CCC(N)=O)C(=O)N[C@@H](C)C(=O)N[C@@H](C)C(=O)N[C@H](C(=O)N[C@H](C(=O)N[C@H](C(=O)N[C@@H](CCCCN)C(N)=O)C(C)C)C(C)C)[C@@H](C)O)C(C)C)C(C)C)C(C)C)[C@@H](C)CC", "test system": "KCCM 11328, Mueller-Hinton broth", "setting": "16 h, 37 °C", "how to read": "growth inhibition over 99%", "MIC": "32 µM"}
{"Compound": "CC1(C)S[C@@H]2[C@H](NC(=O)C(C(=O)O)c3ccccc3)C(=O)N2[C@H]1C(=O)O (stereo partly drawn)", "test system": "fpvB mutant", "MIC": "25 µg/mL"}
{"Compound": "CC[C@H](C)[C@H](NC(=O)[C@H](CC(C)C)NC(=O)[C@H](CCCNC(=N)N)NC(=O)[C@@H](N)CCCNC(=N)N)C(=O)N[C@@H](CCCNC(=N)N)C(=O)N[C@H](C(=O)N[C@@H](CCCCN)C(=O)N[C@H](C(=O)NCC(=O)N1CCC[C@H]1C(=O)N[C@H](C(=O)N[C@H](C(=O)N[C@@H](Cc1ccc(O)cc1)C(=O)N[C@@H](CCCCN)C(=O)N[C@@H](Cc1ccc(O)cc1)C(=O)N[C@@H](Cc1ccccc1)C(=O)N[C@@H](CCCCN)C(=O)N[C@@H](CCCCN)C(=O)N[C@@H](CCC(N)=O)C(=O)N[C@@H](CC(C)C)C(=O)N[C@@H](CC(C)C)C(=O)N[C@@H](CCCCN)C(=O)N[C@@H](CCCCN)C(N)=O)[C@@H](C)CC)[C@@H](C)CC)[C@@H](C)O)[C@@H](C)O", "test system": "KCTC 1637, Mueller-Hinton broth", "setting": "24 h", "MIC": "4 µM"}
{"Compound": "CC[C@H](C)[C@H](N)C(=O)N[C@@H](CO)C(=O)N[C@@H](Cc1ccccc1)C(=O)N[C@@H](CC(C)C)C(=O)NCC(=O)N[C@@H](CO)C(=O)N[C@@H](CCCCN)C(=O)N[C@H](C(=O)N[C@H](C(=O)N[C@H](C(=O)N[C@@H](CC(C)C)C(=O)N[C@@H](CC(C)C)C(=O)N[C@@H](CCCCN)C(=O)N[C@@H](CCCNC(=N)N)C(=O)N[C@@H](CCCNC(=N)N)C(=O)N[C@@H](CCCCN)C(=O)N[C@@H](CCCNC(=N)N)C(=O)N[C@@H](CCCCN)C(=O)N[C@@H](CCCNC(=N)N)C(=O)N[C@@H](CCCCN)C(N)=O)C(C)C)C(C)C)C(C)C", "test": "broth microdilution", "test system": "ATCC 27853", "setting": "highest value reported", "MIC": "32 µM"}
{"Compound": "CC[C@H](C)[C@H](NC(=O)[C@@H](NC(=O)[C@H](Cc1ccccc1)NC(=O)CNC(=O)[C@H](CCC(N)=O)NC(=O)[C@H](CCCCN)NC(=O)[C@H](C)N)C(C)C)C(=O)N[C@@H](Cc1ccc(O)cc1)C(=O)N[C@@H](CCCNC(=N)N)C(=O)N[C@H](C(=O)N[C@@H](CCCNC(=N)N)C(=O)N[C@H](C(=O)N[C@@H](CCCNC(=N)N)C(=O)N[C@@H](CCCNC(=N)N)C(=O)NCC(=O)N[C@@H](CC(N)=O)C(=O)N[C@@H](CCCNC(=N)N)C(=O)N[C@@H](CCCCN)C(N)=O)C(C)C)C(C)C", "test": "broth dilution", "test system": "ATCC 27853", "MIC": "> 100 µM"}
{"Compound": "CC(C)CC1NC(=O)C(C(=O)NC(C(=O)NC2C(=O)N3C2SC(C)(C)C3C(=O)O)c2ccccc2)=C1O (stereo not drawn)", "test system": "pqsE mutant", "MIC": "25 µg/mL"}
{"Compound": "CC(C)C[C@@H]1NC(=O)[C@H](Cc2ccccc2)NC(=O)[C@H](Cc2ccc(O)cc2)NC(=O)[C@H](CC(C)C)NC(=O)[C@H](CCC(=O)O)NC(=O)[C@H](Cc2ccccc2)NC(=O)[C@H](CCCNC(=N)N)NC(=O)[C@H](CCC(N)=O)NC(=O)[C@H](CC(C)C)NC(=O)[C@H](CC(=O)O)NC(=O)[C@@H]2CCCN2C(=O)[C@H](CCCCN)NC(=O)[C@H](C(C)C)NC(=O)[C@H](CC(N)=O)NC(=O)[C@H](Cc2ccc(O)cc2)NC(=O)[C@H]([C@@H](C)O)NC(=O)[C@@H](N)CSSC[C@@H](C(=O)O)NC(=O)[C@H]([C@@H](C)O)NC(=O)[C@H](C(C)C)NC(=O)[C@H]([C@@H](C)O)NC(=O)CNC1=O", "test": "broth dilution", "test system": "CGMCC strain", "setting": "24 h", "MIC": "> 40 µM"}
{"Compound": "CC(C)C[C@H](NC(=O)[C@H](CCCCN)NC(=O)[C@H](CC(C)C)NC(=O)[C@H](CCCCN)NC(=O)[C@H](CC(C)C)NC(=O)[C@H](CCCCN)NC(=O)CNC(=O)[C@H]1CCCN1C(=O)[C@H](CCCCN)NC(=O)[C@H](CC(C)C)NC(=O)[C@H](CCCCN)NC(=O)[C@H](CC(C)C)NC(=O)[C@H](CCCCN)NC(=O)[C@@H](N)CC(C)C)C(N)=O", "test": "broth microdilution", "test system": "ATCC 9027, Mueller-Hinton broth", "setting": "18 h, 37 °C", "MIC": "4 µM"}
{"Compound": "CC(C)(C)Oc1ccc(CC2NC(=O)C(C(=O)NC(C(=O)NC3C(=O)N4C3SC(C)(C)C4C(=O)O)c3ccccc3)=C2O)cc1 (stereo not drawn)", "test": "broth microdilution", "test system": "TonB-dependent receptor mutant", "setting": "PA two-allele library", "MIC": "25 µg/mL"}
{"Compound": "CC[C@H](C)[C@H](NC(=O)[C@H](CC(C)C)NC(=O)[C@H](CCCCN)NC(=O)[C@@H](NC(=O)[C@H](C)NC(=O)[C@H](CCC(=O)O)NC(=O)[C@H](Cc1c[nH]cn1)NC(=O)[C@@H](NC(=O)[C@H](CCCCN)NC(=O)[C@H](CCC(N)=O)NC(=O)[C@H](Cc1ccccc1)NC(=O)[C@@H](NC(=O)[C@H](CCCCN)NC(=O)[C@@H](N)CCCCN)C(C)C)[C@@H](C)CC)[C@@H](C)CC)C(N)=O", "test": "CLSI broth microdilution", "test system": "ATCC 27853", "setting": "18 h, 37 °C", "MIC": "32 µM"}
{"note": "Repeated from above:"}
{"Compound": "CC(C)(C)Oc1ccc(CC2NC(=O)C(C(=O)NC(C(=O)NC3C(=O)N4C3SC(C)(C)C4C(=O)O)c3ccccc3)=C2O)cc1 (stereo not drawn)", "test": "broth microdilution", "test system": "TonB-dependent receptor mutant", "setting": "PA two-allele library", "MIC": "25 µg/mL"}
